Measured values pooled from the literature.
A part holds a random share of what one study measured. Changes are numbered by the printed parent chain.

Block 1
Target: Histone acetyltransferase KAT6A, winged helix 2, GST fusion (KAT6A, Homo sapiens, UniProt Q92794, residues 85-181)
Technique: protein binding microarray
Form: double-stranded DNA, one strand shown
Sample: in vitro
Tested at: not given
Notes: 8-mer, flanks averaged, mean of 2 arrays, mostly near background
Reference: not given
Direction: higher = stronger binding
Residues (chain): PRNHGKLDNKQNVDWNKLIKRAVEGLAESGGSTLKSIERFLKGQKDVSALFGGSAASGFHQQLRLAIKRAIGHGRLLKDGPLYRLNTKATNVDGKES
For `AATCTAGA`, the E-score was -0.0876.
`GCTTATAC` gave an E-score of -0.0614.
For `CTTACGGA`, the E-score was -0.178.
`CCGAGATC` has an E-score of 0.173.
`TCTGTACA` has an E-score of -0.0992.
The E-score of `CTAGCCAA` is reported as 0.0315.
The E-score of `AAGCAACG` is reported as 0.145.
`ATAGGGCG` gave an E-score of -0.00789.
With `ATCTCTGA` the E-score was 0.0206.
`CCAACCTC` has an E-score of 0.14.
With `AAGCTCGC` the E-score was 0.193.
For `GTGTGCGA`, the E-score was 0.00907.
`ATACAGAG` gave an E-score of -0.0748.
`GTACTAAC` has an E-score of -0.118.
`AATGAGTG` has an E-score of 0.017.
With `AAGCGCGC` the E-score was 0.174.
`CCCTCGCG` has an E-score of 0.00936.
The E-score of `GGTCTAAA` is reported as -0.00867.
The E-score of `GAATACCC` is reported as 0.0286.
`GCGTCCCA` has an E-score of 0.0823.
With `CGAGTTAC` the E-score was 0.104.
With `CGTATCCA` the E-score was 0.0197.
The E-score of `ACCTTTGA` is reported as -0.0235.
The E-score of `GATGAAAA` is reported as 0.0102.
`CATTCCCG` gave an E-score of 0.0488.

Block 2
Target: CCNE1, cyclin fold, Cln2 fusion (human)
Technique: yeast growth competition, sequencing
Sample: yeast
Notes: strong parent motif
Reference: not given
Direction: higher = stronger binding
Starting sequence: PLK5 docking peptide (human); IFRKVGQRLLTQC
`Q7A`: “normalised enrichment score” 1.59.
`Q12A`: “normalised enrichment score” 1.62.
`R8A`: “normalised enrichment score” 1.6.
Under “normalised enrichment score”, `I1A` is recorded as 0.992.
Under “normalised enrichment score”, `C13A` is recorded as 0.813.
`K4A` — result for “normalised enrichment score”: 1.19.
Under “normalised enrichment score”, `G6A` is recorded as 1.05.

Block 3
Target: Sal-like protein 4, full length isoform A (SALL4, Homo sapiens, UniProt Q9UJQ4, residues 1-1053)
UniProt Q9UJQ4, sequence (whole entry, looked up): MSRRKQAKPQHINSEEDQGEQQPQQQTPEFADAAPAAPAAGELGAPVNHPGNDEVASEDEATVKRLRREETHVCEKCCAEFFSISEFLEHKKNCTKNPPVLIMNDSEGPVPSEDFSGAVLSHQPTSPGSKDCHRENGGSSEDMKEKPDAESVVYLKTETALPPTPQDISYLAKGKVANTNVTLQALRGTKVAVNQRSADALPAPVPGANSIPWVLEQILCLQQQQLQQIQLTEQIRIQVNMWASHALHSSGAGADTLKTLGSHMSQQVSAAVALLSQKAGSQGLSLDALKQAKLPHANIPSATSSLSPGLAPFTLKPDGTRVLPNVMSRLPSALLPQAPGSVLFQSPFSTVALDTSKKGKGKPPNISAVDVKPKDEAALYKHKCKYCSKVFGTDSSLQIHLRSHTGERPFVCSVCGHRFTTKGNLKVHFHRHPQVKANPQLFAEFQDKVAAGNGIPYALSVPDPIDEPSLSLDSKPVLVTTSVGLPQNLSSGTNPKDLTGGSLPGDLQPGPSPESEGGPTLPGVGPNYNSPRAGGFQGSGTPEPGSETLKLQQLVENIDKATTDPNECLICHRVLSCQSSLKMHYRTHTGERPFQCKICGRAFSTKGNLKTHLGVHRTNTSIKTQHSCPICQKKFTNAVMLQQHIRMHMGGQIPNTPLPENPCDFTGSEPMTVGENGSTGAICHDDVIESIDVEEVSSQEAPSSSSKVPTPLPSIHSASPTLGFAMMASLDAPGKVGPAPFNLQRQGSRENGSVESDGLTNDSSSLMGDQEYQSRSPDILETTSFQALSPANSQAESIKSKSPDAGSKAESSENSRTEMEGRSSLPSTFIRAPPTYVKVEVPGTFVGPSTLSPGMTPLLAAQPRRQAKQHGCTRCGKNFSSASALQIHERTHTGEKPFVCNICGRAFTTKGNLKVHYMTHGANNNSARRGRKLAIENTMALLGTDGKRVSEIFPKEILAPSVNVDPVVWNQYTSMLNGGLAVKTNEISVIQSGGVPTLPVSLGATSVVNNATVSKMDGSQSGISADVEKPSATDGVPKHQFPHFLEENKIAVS
Technique: universal PBM
Form: double-stranded DNA, one strand shown
Sample: in vitro
Tested at: 600 nM
Notes: 8-mer, flanks averaged, mean of replicates
Direction: higher = stronger binding
For `CGCGCTAC`, the E-score was -0.084.
With `GCTCATCC` the E-score was -0.242.
The E-score of `CTATGGCA` is reported as 0.113.
`CACGCCTG` has an E-score of -0.222.
With `CCCTTTAA` the E-score was 0.0228.
`AATCTACC` gave an E-score of 0.11.
`TCGGAGAA` gave an E-score of -0.0798.
With `ATGTGATC` the E-score was 0.118.
`AGTGTTGA` gave an E-score of 0.0972.
For `ATCCAGAT`, the E-score was -0.0547.
`CTAACAAG` has an E-score of 0.177.
`CCGCAATC` has an E-score of -0.156.
With `ATAAAGCC` the E-score was 0.0885.
The E-score of `ACAGACAT` is reported as 0.214.
With `ACTGTCAC` the E-score was 0.121.
For `GAGCCACA`, the E-score was -0.123.

Block 4
Target: TEF, bZIP domain (human)
Technique: DHFR protein complementation
Sample: yeast
Notes: single substitutions, most at no-binding floor
Reference: wild-type JUN-FOS pair
Direction: higher = stronger binding
Starting sequence: JUN, bZIP domain (human); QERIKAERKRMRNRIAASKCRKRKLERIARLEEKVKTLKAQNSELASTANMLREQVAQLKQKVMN; partner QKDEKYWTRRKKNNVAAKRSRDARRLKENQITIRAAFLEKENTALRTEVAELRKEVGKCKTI
The binding fitness of `Q55W` is reported as -1.5 natural log.
`Q41H` gave a binding fitness of -1.46 natural log.
With `E54A` the binding fitness was -1.4 natural log.
For `R53H`, the binding fitness was -1.6 natural log.
`N42C` gave a binding fitness of -1.49 natural log.
The binding fitness of `E33Q` is reported as -1.68 natural log.
For `K39E`, the binding fitness was -1.26 natural log.
The binding fitness of `A57V` is reported as -1.44 natural log.
For `M51Q`, the binding fitness was -1.46 natural log.
For `R53A`, the binding fitness was -1.27 natural log.
With `A29N` the binding fitness was -1.44 natural log.
`L31A` gave a binding fitness of -1.45 natural log.
For `Q58P`, the binding fitness was -1.44 natural log.
The binding fitness of `Q55S` is reported as -1.46 natural log.
The binding fitness of `S47M` is reported as -1.5 natural log.
For `L52D`, the binding fitness was -1.51 natural log.
`M51A` gave a binding fitness of -1.17 natural log.
For `E54D`, the binding fitness was -1.36 natural log.
With `A49W` the binding fitness was -1.59 natural log.
`A29Q` gave a binding fitness of -1.27 natural log.
With `I28K` the binding fitness was -1.53 natural log.
For `T48D`, the binding fitness was -1.65 natural log.
The binding fitness of `E33H` is reported as -1.43 natural log.
The binding fitness of `I28F` is reported as -1.57 natural log.
With `L52H` the binding fitness was -1.51 natural log.

Block 5
Target: Fragile X messenger ribonucleoprotein 1, C-terminal low-complexity region (Fmr1, Mus musculus, UniProt P35922)
Technique: RNA Bind-n-Seq
Form: RNA
Sample: in vitro
Tested at: 200 nM
Notes: whole 134-nt RNA, ends assumed
Together with: 150 mM KCl
Reference: input library
Direction: higher = stronger binding
Shared flanks, not repeated: GGGAGUUCUACAGUCCGACGAUC … UGGAAUUCUCGGGUGUCAAGG
The log2 enrichment of `UCCUGUGCUACACAUCGUAUGUACCGAAUCGGGGUGGGGUUUUUGGGGUUUUUUUGGGGAAAGUAUUAUGUUACGCCGUUCGGAUCUGCA` is reported as 0.951.
With `CCUGUGCUACACAUCGUAUGUACCGAAUCGGGCCCCCCGGGCCCCCCGGGCCCCCCGGGGAAAGUAUUAUGUUACGCCGUUCGGAUCUGC` the log2 enrichment was -0.678.
`CCUGUGCUACACAUCGUAUGUACCGAAUCGGGUUUUUUGGGUUUUUUGGGGUUUUUUGGGAAAGUAUUAUGUUACGCCGUUCGGAUCUGC` has a log2 enrichment of -0.208.
For `GCAGGAAGUAAAAACAAAUGGAAAUGCUUCGGAUAGUGGCAGGGGUGGGGGUUGCUAAGGAAAGGGUGGGAUGGCAGUGGGUAAAGAGUU`, the log2 enrichment was 0.21.
`UAACUUUAGAGGAGGAUCUGAUGGAUAUGGCAGUGGACGUGGAUUUGGGGAUGGCUACAAUGGGUAUGGAGGAGGACCUGGAGGUGGCAA` has a log2 enrichment of 0.286.
`CUCAAGUCCUGUGCUACACAUCGUAUGUACCGAAUCGGAAAAAGGAGGAAAGGAAAGUAUUAUGUUACGCCGUUCGGAUCUGCACUUCCA` has a log2 enrichment of -0.277.
`UGGCCCUGGUGGCAUGCGGGGAGGAAGAGGUGGCCUCAUGGAUCGUGGUGGUCGCGGUGGAAUGUUCAGAGGUGGCCGUGGUGGAGACAG` has a log2 enrichment of 0.0636.
For `AAGUCCUGUGCUACACAUCGUAUGUACCGAAUCGGAAAGGUUUUUGGUUUUUUUGGAAAGUAUUAUGUUACGCCGUUCGGAUCUGCACUU`, the log2 enrichment was -1.12.
The log2 enrichment of `UUGUUCUGGCAUAAACAUAACAUUGAGAAGUCCCUUGCUGAUCUCCCUAAUUUCACUCCCUUUCCGGAUGAGUGGACAGUGGAAGAUAAA` is reported as -0.19.

Block 6
Target: RING finger protein unkempt homolog, zinc fingers 1-6, GST-SBP tag (UNK, Homo sapiens, UniProt Q9C0B0, residues 30-357)
Technique: RNA Bind-n-Seq
Form: RNA
Sample: in vitro
Tested at: not given
Notes: RNA with constant flanks, ends assumed
Reference: input RNA pool
Direction: higher = stronger binding
Shared flanks, not repeated: GGGAGUUCUACAGUCCGACGAUC … CAACAGAGGAUUGAGCAUCA
Residues (chain): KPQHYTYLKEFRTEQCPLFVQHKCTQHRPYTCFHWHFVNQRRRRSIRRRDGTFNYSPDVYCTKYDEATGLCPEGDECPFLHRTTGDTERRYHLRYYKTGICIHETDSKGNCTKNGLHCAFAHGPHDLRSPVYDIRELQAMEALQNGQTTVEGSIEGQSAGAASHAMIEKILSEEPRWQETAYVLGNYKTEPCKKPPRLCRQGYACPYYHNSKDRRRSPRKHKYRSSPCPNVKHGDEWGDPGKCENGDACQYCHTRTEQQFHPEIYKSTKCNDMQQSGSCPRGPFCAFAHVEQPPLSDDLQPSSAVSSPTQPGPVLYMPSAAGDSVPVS
With `GGCUGCUGGUGACUGUCCUGGAGUGGCUGGAGUUCCCGCCGGAGCGCGGCCAGACUAAUUUCCGAAAAUGCCAAGUAGGAAGUUUGUUGAGGGUGAAGUGGUCAGAGGCCGAUGGCCUGG` the bound/input enrichment was 0.185 ratio.
`UUCUUCUUCUUUGACUCAGUUCAAGUAGUUUUUACAAUAUGUACAGCAGUUCUUGCAACGACCGCUUUUGCUUUUCUUCUCCUCCCGAUGUGCCAGUAUUUAACAAGACCCUGCUCACCU` has a bound/input enrichment of 4.79 ratio.
For `UUAAUAACAAGCAACUGCACAUCAAAGUCAGUUCCUGUAAGGAGACGUUCAUUUGAAUUUUCCGAUUUGCUGCUGCAAGAAUGGCAGACUCAUUCACUGGAAAGACAUGCAGCUGUUUUG`, the bound/input enrichment was 0.0839 ratio.
`GUUUUUAUACAGCCUCAAAUUGUUUUAUUAAAAAAAAAAAGAUUAAAAAAUGGUGAUGCUCCGCAGCAGUUUGUAUAAGCUCCUAGUGUCAACUCCAUGGGACUGAUGGCUUUGCUCAUU` gave a bound/input enrichment of 0.858 ratio.
With `CUGGCAGUUGAGAGACUGUUGGAGCCUCUUGUUACACAGGUUACAACCCUUGUAAACACCAACCGUAAAGGGCCCUCUAAUAAGAAGAGAGGUCGUUCUAAGAAGGCCCAUGUUUUGGCU` the bound/input enrichment was 0.201 ratio.
With `CGCGUUUUGUGUAGAGAAUAAGGAACGUGGAUCUUUUUAUUUUGCAAUCCUGGGCCAGCCCGAAGCCAGGAGCUGAUUGACCUUUUAACUUUUUUCAGUGGCCACAUUUUGGUUAUCGAU` the bound/input enrichment was 0.493 ratio.
`UGUGUGGCCAGAGCUUGCACAGGAGGAAAGCAGGCUGCUGAAUUUAGUCACUGAUCUCUAUCCGCGGCCGCCUAAGGCUAUGCUGAGGUUUAUAUCCCAUUUGUAUUGUUGCAGCUCAAA` has a bound/input enrichment of 0.359 ratio.
With `AAAGGCAGCUGUGUUAUUUCAUAAAUAACUUGGGAGAAACUGCAUCCUAAGUGGAAGAACCCGUUUGUUUUAGUUUUCCCAGAUAAAACCAACAUGCUUUUUAAGGAAGGAAGAAUGAAA` the bound/input enrichment was 0.194 ratio.
